Assay results gathered from unrelated publications.
Lines come from different studies, so protocols differ. “And” joins repeats or separate records; there may be more than shown. Numbers after ± are the reported error.

Compound | tested on | assay | system | conditions | scale | quantity | value
CN1CCCNC(=O)c2cccc(c2)C(=O)NCCCN(C)CCCNc2cccc3c2C(=O)c2cccc(c2C3=O)NCCC1 | SAS | RNA-Seq, measured: MRPS33 mRNA | – | 1 µM, 6 h | reference: untreated cells | log2 fold change | 0.735
O=C(CCCCCOc1ccc2ccccc2c1)N[C@@H](CO)C[C@@H](O)c1ccc(-c2ccccc2)cc1 | HeLa | CERT activity, HPLC-MS/MS lipidomics, measured: sphingomyelin 20 | – | 1 µM, 24 h, not cell-number normalised | – | sphingomyelin level | 4200 pmol/sample and 4280 pmol/sample and 4020 pmol/sample
Cn1ncc2cc(-c3cncc(Cl)c3N3CCC4(CCNC4=O)CC3)ccc21 | LS174T | microarray, measured: PTGS2 | – | concentration not given, 24 h, gene set COX-2 | reference: untreated cells | fold change in expression | -2.89
CC(C)c1ccc(N(C)c2ccc3c(c2)OCC[C@H]3CNc2cnccc2C(=O)O)cc1 | LUDLU-1 | cell viability, CellTiter-Glo | – | 7 days | – | IC50 | 25.8 nM
CO[C@@H]1[C@@H](OC(N)=O)[C@@H](O)[C@H](Oc2ccc3c(O)c(NC(=O)c4ccc(O)c(CC=C(C)C)c4)c(=O)oc3c2C)OC1(C)C | HCT-116 BRCA2-/- | – | – | 100 µM, replicate 2 | – | colony count | 24.5
CCC(=CCc1c(O)cc2c(c1O)C(=O)CC(c1ccc(O)cc1)O2)CC (stereo not drawn) | HeLa | cell growth or viability, MTT | – | 50 µM, 48 h | – | inhibition | 91.5%
CN1CC[C@@H](COc2cnc(C#N)cc2-c2ccn3nc(NC(=O)C4CC4)cc3c2)C1 | human PBMC, CD4 memory T cells | single-cell RNA-seq | – | 1 µM, with: LPS | reference: LPS alone | number of downregulated genes | 5 genes
O=C(CC(=O)Nc1ccc2c(/C=C/c3ccccn3)n[nH]c2c1)Nc1ccc(Cl)c(C(F)(F)F)c1 | Ba/F3 TEL-VEGFR2 | cell growth, CCK-8 | – | – | – | GI50 | 120 nM
COC(=O)c1cc(NC2=NC(=O)C(=Cc3ccc(N(C)C)cc3)S2)ccc1OC(C)=O | MCF7 | GC-MS, measured: L-Tyrosine | – | 1 µM | reference: DMSO | metabolite level | 0.18 fold change
O=C(N1CCCC1)n1cc(-c2ccc(-c3ccccc3)cc2)nn1 | mouse T cells | N-terminal labelling proteomics, measured: Tmsb4x N-terminal peptide | – | 0.001 µM, 6 h | reference: DMSO | SILAC ratio per peptide | 1.18 and 0.87 and 0.89
C=CC(=O)N1CC2C(=O)N(CCN(C)C)c3c(c4cc(Cl)c(-c5c(O)cccc5F)nc4n(-c4c(C)ccnc4C(C)C)c3=O)N2CC1C (stereo not drawn) | non-KRAS G12C-mutant cell lines | – | – | concentration not given | – | cell growth | no effect
CCCCCCCCCCCCCCCC(=O)OCC(CSC[C@H](N)C(=O)N[C@@H](CO)C(=O)N[C@@H](CCCCN)C(=O)N[C@@H](CCCCN)C(=O)N[C@@H](CCCCN)C(=O)N[C@@H](CCCCN)C(=O)NCCCCCC(=O)N[C@@H](CCCCN)C(=O)N[C@@H](CC(C)C)C(=O)N[C@H](C(=O)N[C@@H](Cc1ccccc1)C(=O)N[C@@H](Cc1ccccc1)C(=O)N[C@@H](Cc1ccc2ccccc2c1)C(=O)O)C(C)C)OC(=O)CCCCCCCCCCCCCCC (stereo partly drawn) | BV-2 | RNA-seq, measured: Arg1 | – | concentration not given | – | mRNA level | 0.0898 FPKM and 0.126 FPKM and 0.204 FPKM
O=C(Nc1nncs1)c1cccc([C@@H]2C[C@H]2NC2CCC2)c1 | SET-2 | cell growth, CellTiter-Glo | – | 10 µM, 7 d | reference: vehicle | relative growth | 83% and 94.1% and 81.2%
COc1ccc(O)cc1-c1c[nH]c2ncc(-c3cncc(C(=O)N(C)C)c3)cc12 | non-BCR-ABL leukaemia cells | – | – | concentration not given | – | cytotoxicity | not toxic
COc1cccc(C(=O)Nc2ccc(Sc3ccc4c(/C=C/c5ccccn5)n[nH]c4c3)cc2)c1 | Ba/F3 TEL-VEGFR2 | cell growth, CCK-8 | – | – | – | GI50 | 200 nM
O=C(Nc1nnc2c1c(-c1ccc(Cl)cc1)nc1sc(=Cc3ccco3)c(=O)n12)c1ccccc1 (mixture of isomers) | KM12 | SRB | – | 10 µM, NCI60 single-dose screen, colon cancer | reference: untreated | cell growth | 39.9%
CNS(=O)(=O)Nc1nccc(Cc2c(C)c3ccc(Oc4ncccc4F)cc3oc2=O)c1F | MDA-MB-436 | cell viability | – | 7 days | – | IC50 | > 1000 nM

Compound | tested on | assay | system | conditions | scale | quantity | value
Cn1c(=O)n(C2CCC(=O)NC2=O)c2ccc(C3CCN(CC(=O)Nc4cccc(CS(=O)(=O)N5CC[C@H](Nc6cccc(-c7sc(C(=O)O)c(OCC(=O)O)c7Cl)c6)CC5(C)C)c4)CC3)cc21 (stereo partly drawn) | B16-F10 | HTRF, measured: phospho-STAT1 Tyr701 | – | 3.3 µM, with: IFN-γ | reference: min-max normalised | pSTAT1 level | 98.2% and 88.6% and 88% and 93.1% and 90%
CN(C)CCN1CCN(c2ccc3nc(-c4ccc5nc(-c6ccc(C(F)(F)F)cc6)[nH]c5c4)[nH]c3c2)CC1 | KM12 | SRB | – | 10 µM, 48 h | – | growth percent | 26.5%
Fc1ccc(Nc2nc(NC3CCCCC3)c3cc(Br)ccc3n2)cc1F | transfected HEK293 cells | β-arrestin2 recruitment, negative allosteric modulator, BRET | – | 30 min pre-incubation, β1AR ECL1 chimera, with: isoproterenol 1 µM | reference: isoproterenol alone | Imax | 1%
Cc1ncsc1-c1ccc(C(C)NC(=O)C2CC(O)CN2C(=O)C(NC(=O)CCCCCCCCCCN2CCCC(Nc3ncc(Cl)c(Nc4ccccc4S(=O)(=O)C(C)C)n3)C2)C(C)(C)C)cc1 (stereo not drawn) | 22Rv1 | RNA-seq, measured: NSRP1 mRNA | – | concentration not given | reference: DMSO | log2 fold change | -1.06
CCCCCCCCN(CCC(=O)Nc1ccccc1)C(=O)c1ccccn1 | progeroid mouse fibroblasts, Lmna G609G/G609G | MTT | – | 2 µM, 72 h | reference: vehicle-treated wild type | viability | 93 ± 9%
COc1cc(N2CCN(C(=O)CCOCCNC(=O)[C@@H]3CCCN3)CC2)ccc1Nc1ncc(Cl)c(Nc2ccccc2P(C)(C)=O)n1 | H3122 | flow cytometry | – | 500 nM, 24 h | – | S phase cells | 30.4% and 30.2% and 29.6%
COc1ccccc1-c1ccncc1C(=O)Nc1nnc(OCc2ccc(Cl)cc2)s1 | MDA-MB-436 BRCA1-mutant | – | – | 0.1875 µM, mean of 3 replicates | reference: untreated | colony survival | 72.7%
COc1cccc(OC)c1-c1cc(C(=O)NC2(C(=O)O)C3CC4CC(C3)CC2C4)nn1-c1ccc(C(=O)N(C)CCOCCOCCN(C)C(=O)[C@H](CCCCNC(=O)[C@H](CC(C)C)NC(=O)C2OC2C(=O)O)NC(=O)CN2CCN(CC(=O)[O-])CCN(CC(=O)[O-])CCN(CC(=O)[O-])CC2)cc1C(C)C.[177Lu+3] (mixture of isomers) | HT-29 | – | – | concentration not given, 30 min | reference: added activity | internalized fraction | 0.72 ± 0.04%
C1=[N+]2CCCC[N+]3=Cc4ccc5[n]4[Au-]23[n]2c1ccc2-c1nc2ccccc2nc1-5.F[P-](F)(F)(F)(F)F | M14 | NCI60 five-dose screen | – | – | – | TGI | 4 -log M
CCN(CC)CC(=O)Nc1cccc(-n2cc(-c3ccc4ccc(-c5cn(-c6cccc(NC(=O)CN(CC)CC)c6)nn5)cc4c3)nn2)c1 | RCC4 | PCR angiogenesis array, measured: CCL2 | – | 5 x IC50, 6 h, normoxia | reference: untreated | fold regulation | 1.24
CCOc1cncc(-c2ccc(NC(=O)C3(c4ccnc(NS(=O)(=O)C5CC5)n4)CCOCC3)nc2)n1 | TK-10 | cell proliferation, CellTiter-Glo | – | 72 h, renal cancer | – | IC50 | 5140 nM
CNC(NN=Cc1ccc([N+](=O)[O-])o1)=[S+][Au-][Cl] | CAKI-1 | annexin V/PI flow cytometry | – | 5 µM, 72 h | – | cell fraction ANV−/PI+ | 2.2 ± 0.9%
Cc1cc(Cl)cc(-c2ccnc3cc(CN4C(=O)C5C(C4=O)C5(C)C)sc23)c1C[C@@H]1CNCCO1 (stereo partly drawn) | CHP-212 parental | annexin V/PI flow cytometry | – | 0.1 µM, 48 h | – | apoptotic cells | 17.4%
CN(C)c1ccc(-n2cc(COC(=O)[C@]3(C)C=C(C(=O)OC(C)(C)C)C(=O)CC3)nn2)cc1 | HeLa | quantitative western blot | – | concentration not given, 20 (unit not given), with: EGF | – | pRSK/tubulin ratio | 0.188
COC1CN([C@H]2CC[C@H]([C@@]3(C)Oc4c(Cl)cc(C(=O)NCc5c(SC)cc(C)[nH]c5=O)c(C)c4O3)CC2)C1 | – | RNA-seq, measured: DAAM2 | human, whole blood | dose not given, 24 h | reference: pretreatment baseline | log2 fold change | 5.55
CCN(C(=O)c1cc(F)ccc1Oc1nncnc1N1CCC2(C1)CN([C@H](CCCN(C)CCOC)C(C)C)C2)C(C)C | MDA-MB-436 | cell growth or viability | – | 72 h | – | GI50 | > 10000 nM

Excerpt of the above:
Compound | tested on | assay | system | conditions | scale | quantity | value
CNS(=O)(=O)Nc1nccc(Cc2c(C)c3ccc(Oc4ncccc4F)cc3oc2=O)c1F | MDA-MB-436 | cell viability | – | 7 days | – | IC50 | > 1000 nM
CCN(CC)CC(=O)Nc1cccc(-n2cc(-c3ccc4ccc(-c5cn(-c6cccc(NC(=O)CN(CC)CC)c6)nn5)cc4c3)nn2)c1 | RCC4 | PCR angiogenesis array, measured: CCL2 | – | 5 x IC50, 6 h, normoxia | reference: untreated | fold regulation | 1.24
Fc1ccc(Nc2nc(NC3CCCCC3)c3cc(Br)ccc3n2)cc1F | transfected HEK293 cells | β-arrestin2 recruitment, negative allosteric modulator, BRET | – | 30 min pre-incubation, β1AR ECL1 chimera, with: isoproterenol 1 µM | reference: isoproterenol alone | Imax | 1%
CN1CC[C@@H](COc2cnc(C#N)cc2-c2ccn3nc(NC(=O)C4CC4)cc3c2)C1 | human PBMC, CD4 memory T cells | single-cell RNA-seq | – | 1 µM, with: LPS | reference: LPS alone | number of downregulated genes | 5 genes
